Published values gathered from unrelated publications.
A part holds a random share of what one study measured.

Sample 1
Target: Interferon regulatory factor 3, full length, phosphomimetic (IRF3, Homo sapiens, UniProt Q14653, residues 1-427, S386D/S396D/S398D/S402D/T404D/S405D)
Method: protein-binding microarray
Molecule type: double-stranded DNA, one strand shown
Matrix: in vitro
Concentration: 2540 nM top
Setting: 60-bp whole probe
Added: salmon DNA 0.4 mg/ml
Reference: random background probes
Reading: higher = stronger binding
Endpoint: fitted relative affinity
Target sequence (chain): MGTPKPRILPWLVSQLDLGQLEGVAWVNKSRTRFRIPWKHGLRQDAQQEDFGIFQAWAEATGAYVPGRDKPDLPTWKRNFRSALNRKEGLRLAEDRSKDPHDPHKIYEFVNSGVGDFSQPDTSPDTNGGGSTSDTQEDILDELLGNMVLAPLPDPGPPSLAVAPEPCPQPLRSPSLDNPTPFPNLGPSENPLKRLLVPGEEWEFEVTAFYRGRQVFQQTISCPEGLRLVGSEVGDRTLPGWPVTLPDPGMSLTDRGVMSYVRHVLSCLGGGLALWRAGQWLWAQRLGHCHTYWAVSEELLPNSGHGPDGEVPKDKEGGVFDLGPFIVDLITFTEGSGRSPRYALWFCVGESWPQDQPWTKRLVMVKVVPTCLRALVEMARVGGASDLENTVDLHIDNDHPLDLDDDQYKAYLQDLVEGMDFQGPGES
GCCTAGCACTTAGGACTGCTACTGCTTTGGTGCTAGGTCTTGATTCGCTTGACGCTGCTG: -0.649 z-score
GCCTAGCACGACGGTATCGGGACTGGGGATGTGCTAGTCTTGATTCGCTTGACGCTGCTG: 1.58 z-score
GCCTAGCACTTAAATATCGGGTATCGATTAGTGCTAGTCTTGATTCGCTTGACGCTGCTG: 0.45 z-score
GCCTAGCACTACGATTTCAGACTGGAGACGTGCTAGGTCTTGATTCGCTTGACGCTGCTG: 0.625 z-score

Sample 2
Target: Histone acetyltransferase KAT6A, both winged helices, GST fusion (KAT6A, Homo sapiens, UniProt Q92794, residues 1-181)
Method: protein binding microarray
Molecule type: double-stranded DNA, one strand shown
Matrix: in vitro
Concentration: not given
Setting: 8-mer, flanks averaged, mean of 2 arrays, mostly near background
Reference: not given
Reading: higher = stronger binding
Endpoint: E-score
Construct (chain): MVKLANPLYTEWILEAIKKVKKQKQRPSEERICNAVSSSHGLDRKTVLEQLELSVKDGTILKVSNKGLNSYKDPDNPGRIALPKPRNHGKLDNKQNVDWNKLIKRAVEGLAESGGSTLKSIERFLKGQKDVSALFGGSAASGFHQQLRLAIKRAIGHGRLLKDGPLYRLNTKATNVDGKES
CTAAATAG: -0.0319
CGAGAAGC: 0.129
ACTGAAAT: -0.0771
CGGTTCTA: 0.125
AATCACTC: -0.198
ACTAAATG: -0.117
CCAAGAGC: -0.143

Sample 3
Target: Phosphate system positive regulatory protein PHO4, full length, GST-tagged (PHO4, Saccharomyces cerevisiae, UniProt P07270, residues 1-312)
Method: competition protein-binding microarray
Molecule type: double-stranded DNA, one strand shown
Matrix: in vitro
Concentration: 2 µM
Setting: whole 60-bp probe, lowest competitor level
Added: Cbf1 competitor, 0.05 µM
Reading: higher = stronger binding
Endpoint: fluorescence intensity
All sequences stand within: … GTCTTGATTCGCTTGACGCTGCTG
Construct (chain): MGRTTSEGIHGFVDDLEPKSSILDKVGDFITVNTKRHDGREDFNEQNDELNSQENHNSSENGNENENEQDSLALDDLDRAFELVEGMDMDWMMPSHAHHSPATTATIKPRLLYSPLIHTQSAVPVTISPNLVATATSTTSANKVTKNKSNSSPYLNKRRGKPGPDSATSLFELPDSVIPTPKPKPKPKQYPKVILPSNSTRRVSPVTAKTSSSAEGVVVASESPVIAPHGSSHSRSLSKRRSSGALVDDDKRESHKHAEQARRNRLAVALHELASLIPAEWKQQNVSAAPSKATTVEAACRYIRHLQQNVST
GTCTTGTCTCATTGGATCGTGGGTGTCCCCACTTCA: 8520 a.u.
CGGTATGTTCCGAGCCGCGTGCCGAAGGAGGGCAAA: 8940 a.u.
CTTCTGTAAATTTGGATCGTGGGTGGACGCGCCCCG: 8180 a.u.
AAATTACTAAGTTGGACGGTGGGTGACGCCGTATGA: 4220 a.u.
CTAACGAAGGTTTGGCTAGTGGGTGACAAGCCAAGT: 3410 a.u.

Further values, each from its own experiment
PhoQ, residues 284 288 289 292 302 303 TTSMTC
fold induction (PhoP, residues 12 14 15 18 19 TQAIL (Escherichia coli, UniProt P23836); Sort-seq, refers to: YFP reporter; E. coli; PhoQ-PhoP variant library, added: 10 µM Mg2+; reference: high Mg2+ state, higher = stronger signaling): 2.83
